# Measurements pooled from the literature.
# Parts stem from different laboratories: compare values within a part only. Substitutions count along the parent as printed.

# Block 1
# Target: Interferon regulatory factor 7, full length, phosphomimetic (IRF7, Homo sapiens, UniProt Q92985, residues 1-503, S101K/S471D/S472D/S475D/S476D/S477D/S483D/S484D/S487D)
# Method: protein-binding microarray
# Form: double-stranded DNA, one strand shown
# Sample: in vitro
# Tested at: 250 nM
# Notes: 60-bp whole probe
# Added: salmon DNA 0.4 mg/ml
# Relative to: random background probes
# Reading: higher = stronger binding
# All sequences stand within: GCCTAGCAC … GTCTTGATTCGCTTGACGCTGCTG
# Target sequence (chain): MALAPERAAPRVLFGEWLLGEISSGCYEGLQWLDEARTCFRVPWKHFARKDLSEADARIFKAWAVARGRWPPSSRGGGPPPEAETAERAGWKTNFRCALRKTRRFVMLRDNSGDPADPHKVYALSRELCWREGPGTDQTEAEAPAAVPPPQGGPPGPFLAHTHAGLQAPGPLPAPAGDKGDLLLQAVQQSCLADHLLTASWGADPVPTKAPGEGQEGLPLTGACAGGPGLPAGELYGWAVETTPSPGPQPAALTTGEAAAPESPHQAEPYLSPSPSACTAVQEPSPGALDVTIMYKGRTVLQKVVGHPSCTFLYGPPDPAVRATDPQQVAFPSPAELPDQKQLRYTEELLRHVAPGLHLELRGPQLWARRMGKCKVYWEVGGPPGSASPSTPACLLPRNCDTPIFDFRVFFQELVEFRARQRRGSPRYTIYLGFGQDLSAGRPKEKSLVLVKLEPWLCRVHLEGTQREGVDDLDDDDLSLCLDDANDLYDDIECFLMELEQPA
Oligonucleotide,log fluorescence [z-score]
TCAACAATGGCTTTGCCACTGTGCTAG,-0.733
TTAGGACTGGGGGTTCGGTTAGTGCTA,1.06
GGCGATATCAGACTGGAGACGTGCTAG,-0.816
GACTGTCTCCTTTTCCTGACGTGCTAG,0.782
TTAAGTATCGGTATCGGTTAGTGCTAG,2.92
GAAGGACTGCTTATCCTGACGTGCTAG,-0.0787
TTAGATATCCGTATCGATTAGTGCTAG,0.275
TCTCTTTTTGCTTTCTTTATGTGCTAG,2.48
TTAGGTATCGACTATCGGTTCGTGCTA,0.37
TTAGAACCGAGTATCGATTAGTGCTAG,0.99
GACTGTATCCTACTGCTGACGTGCTAG,0.084
TTACGTATCCTTTTCCTTTAGTGCTAG,1.58
TTAGCTTTCCTTCTCCTTTAGTGCTAG,0.766
GACGGTTTCGGGTTTCGGGAAGTGCTA,11.8
TCACGTCTCCACCTGGGACTGTGCTAG,0.133
TTACATATCGGGTTTCGATTAGTGCTA,6.65
TCAGAAATCTCTTTCCTACTGTGCTAG,0.288
GACGGTATCGGGACTGTGGACGTGCTA,-0.374
GACGGTCTCCTTCTCCTGACGTGCTAG,-0.00491
TTAGGTTTCGGGTCTCGGTTAGTGCTA,10.7
TTTGATATCGGGTATCGATTAGTGCTA,0.396
TCATCTGTTCTTTTCAGACTGTGCTAG,0.673
TTCGATCTCAGTTTCGATTAGTGCTAG,7.47
TTAGGTATAGGTATCGGTTAGTGCTAG,0.839
CTTACTTTATGTAGGAAGTCGTGCTAG,0.281

# Block 2
# Target: CCNB2, cyclin fold, Cln2 fusion (human)
# Method: yeast growth competition, sequencing
# Sample: yeast
# Notes: weak parent motif
# Relative to: not given
# Reading: higher = stronger binding
# Parent: WEE1 docking peptide (human); HKTFRKLRLFDTP
Change,normalised enrichment score
K2C,0.22
K6S,0.152
T12N,1.85
L7V,0.144
F4Y,0.37
H1Y,0.352
D11N,-0.14
K2Y,-0.181
T12P,0.932
D11H,-0.45
L7P,0.555
F10V,0.373
H1D,0.749
F10C,0.489
P13C,0.826
P13N,1.08
F10L,0.282
T12E,0.651
R5S,0.211
F4T,0.831
D11M,0.825
L9P,0.435
R5A,-0.57
H1E,0.123

# Block 3
# Target: RING finger protein unkempt homolog, zinc fingers 1-6, SBP tag (UNK, Homo sapiens, UniProt Q9C0B0, residues 30-357)
# Sequence of UniProt Q9C0B0 (30-357, looked up): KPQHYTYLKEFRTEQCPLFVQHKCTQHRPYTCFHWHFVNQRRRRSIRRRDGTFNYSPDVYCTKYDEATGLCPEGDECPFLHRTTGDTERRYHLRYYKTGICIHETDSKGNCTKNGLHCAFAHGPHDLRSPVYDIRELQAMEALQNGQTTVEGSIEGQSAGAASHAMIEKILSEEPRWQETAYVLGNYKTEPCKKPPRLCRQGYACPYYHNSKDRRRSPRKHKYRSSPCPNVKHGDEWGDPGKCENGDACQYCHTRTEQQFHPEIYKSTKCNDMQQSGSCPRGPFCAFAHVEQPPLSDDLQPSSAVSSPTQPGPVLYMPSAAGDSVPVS
# Method: RNA Bind-n-Seq
# Form: RNA
# Sample: in vitro
# Tested at: 100 nM
# Notes: RNA with constant flanks, vertebrate orthologous sites, ends assumed
# Relative to: input RNA pool
# Reading: higher = stronger binding
# All sequences stand within: GGGAGUUCUACAGUCCGACGAUC … CAACAGAGGAUUGAGCAUCA
Oligonucleotide,bound/input enrichment
UCGUUGUAUUGCAAAAAUCACCCUAGUUUUAAACUAGCCUCAGUGAUAACUAGUCUGUGCUAGUAGAAUCAUUUACUAUUACCUUUUAAAUUAUCUGCUUUGUCCGAUACCUGAAACCAA,0.803 ratio
GAAGCUAUUGAAUAGUAUUAAGAUUCUCGUCUUCCUUUUUCUUUUUUUUUGGUCCCAUAAUAGUCUACUUUUUUAAAUUUCAGACUCCACUGCUCUUUGAAUUGAUACUUCCAAUUUUCA,1.27 ratio
UCCCAGCACUUUGAUAAAAAGUGUGGACUGGCUGCUCGUAUUUUCCUUAUUCUUUUUAAUUAGUUUUAUUAUGUACGCUACCAUUCGAACGGAGAGUAUUCGGUGGCUAAUUCCGGGACA,1.69 ratio
AGUAGGAUUAAUUACAUAAUACAAAAGUUGCAGUUGAAAGGAUAUUCAAGUAUGUGUUGGUAGUUACUAAAAGAAUUAUAGCUGUUAUUGCCUUGUAUUUAUAGCCCUUGUUUCAGGUUU,1.43 ratio
AGUAGUUUUAAGCUUGUUUGCACAGUUCUUUUUUUCCAUUGGAAAUGGAAUUCAUUGCCUUAGGUCUUUUAAAAUAGUGUAUUAUUAUCGUUGGGGCUGGCUCUAUGCUUGAAAACCAGU,2.95 ratio
CUGAAGCUUUGUGUUUGGCUGCACCUGCAUAAGCUGCUACAAAUAGAAUAAAGAAUCUCAUAGCCUGUGUCUAUCAUUUAGAUGCAUGGGAAAAUGGGCUUUGCACACAAUGGGUUUGGA,1 ratio
GGUAUCUUUUGCAUGGAAUAUUGAACACUUCCAUGCUUACGUUAAAUGCUAAAAUUAAGCUGCAGUACUUUUUCUGCAGUAUUGUUUGCUUGUGUUUAAAGUCAGACAGGAUAAAUGUGC,0.583 ratio
UUUAAAAUGUAUUUAAUCACACUCACUGACCUCAUUUCUGAGUCCCUCCUGUCACUGAACGCAACUCUCCUUUUCACGAUUGCAGUUGGAAGCCUAUGAGUUCAUAGGCGGCCAAGUCAG,0.411 ratio
AAAUUUACUUCAUGCCCUGGACGCCCUACCGCACCGACACUUUGAUCGAGUUUGCCUCUAUCGAAGACUUCCAGAAUAGCCGUCAGACCACUACGUAUAAACUUCCCAACCGAGUAGACG,0.625 ratio
CUGUUGUUAAGCACUGUGUUCCAGACUGUGUCUGACUUUCGUGUAACCUAGGAGAUUUUAUUGUUUUAUUUUAAUGAAACCCUGCUUGCCGCAGAGCAGCCGGGAGAGCAGCGUCCACCA,0.607 ratio
CAUUGUACCCUGCUGUAUAAUAAAUAAUCUUAGACAUUUAUCAACUGUUGAUACAAAUGUUAGUCCCUAACCACUUUUUAUAUGUUUUAAAUUUUUGAAAUUCAAGUGUACCUGCCAUAA,1.57 ratio

# Block 4
# Target: Sal-like protein 4, full length isoform A (SALL4, Homo sapiens, UniProt Q9UJQ4, residues 1-1053)
# Sequence of UniProt Q9UJQ4 (whole entry, looked up): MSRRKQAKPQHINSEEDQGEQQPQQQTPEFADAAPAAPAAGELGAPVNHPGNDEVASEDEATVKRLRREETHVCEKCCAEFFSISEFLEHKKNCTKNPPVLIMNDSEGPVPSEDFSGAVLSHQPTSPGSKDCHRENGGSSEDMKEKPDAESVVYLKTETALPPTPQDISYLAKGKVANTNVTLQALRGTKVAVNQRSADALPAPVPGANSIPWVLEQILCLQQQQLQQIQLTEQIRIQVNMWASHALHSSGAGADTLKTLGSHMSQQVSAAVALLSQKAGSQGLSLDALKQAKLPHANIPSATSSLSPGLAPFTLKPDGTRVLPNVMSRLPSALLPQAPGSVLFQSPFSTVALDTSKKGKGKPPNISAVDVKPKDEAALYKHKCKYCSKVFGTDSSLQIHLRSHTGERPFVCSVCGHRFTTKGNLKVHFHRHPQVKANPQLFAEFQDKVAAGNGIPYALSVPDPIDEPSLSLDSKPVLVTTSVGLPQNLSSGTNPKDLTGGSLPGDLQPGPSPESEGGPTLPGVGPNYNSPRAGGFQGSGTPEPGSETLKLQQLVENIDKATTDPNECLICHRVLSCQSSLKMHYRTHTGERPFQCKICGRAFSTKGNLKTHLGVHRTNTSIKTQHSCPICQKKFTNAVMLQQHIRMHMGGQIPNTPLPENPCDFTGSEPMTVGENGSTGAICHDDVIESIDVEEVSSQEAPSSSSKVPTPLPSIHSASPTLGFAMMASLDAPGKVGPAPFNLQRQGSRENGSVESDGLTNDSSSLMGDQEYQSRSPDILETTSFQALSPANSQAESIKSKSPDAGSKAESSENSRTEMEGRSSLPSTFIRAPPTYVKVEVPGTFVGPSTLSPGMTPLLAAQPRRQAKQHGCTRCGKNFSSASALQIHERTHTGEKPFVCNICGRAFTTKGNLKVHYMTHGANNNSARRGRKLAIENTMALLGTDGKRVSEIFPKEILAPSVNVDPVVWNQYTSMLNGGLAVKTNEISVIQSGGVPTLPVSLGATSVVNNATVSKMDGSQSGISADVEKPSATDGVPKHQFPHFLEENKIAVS
# Method: universal PBM
# Form: double-stranded DNA, one strand shown
# Sample: in vitro
# Tested at: 600 nM
# Notes: 8-mer, flanks averaged, mean of replicates
# Reading: higher = stronger binding
Oligonucleotide,E-score
ATTAGCCG,-0.0191
CTCAGAAC,-0.0148
TAGATTCA,0.116
TCCGATAA,0.112
ACGCGTCG,-0.0523
CTGTTAAG,0.0908
GAAGCCAA,-0.0254
GAAGCCTA,-0.0626
AACTGTTG,0.0641
AGCATGGC,-0.172
CGAGCCCG,-0.328
AGCGCGTC,-0.297
AGATTGGA,0.0901
AGTTAATA,0.36
GGTTAAGA,0.0987
ACTCAGAC,0.0909
CCTTAACG,-0.125
ACATCCCA,-0.152
ATGCAGCC,-0.0783
AACCTACC,-0.135
